Published values gathered from unrelated publications.
Protocols differ between the studies behind these lines. Numbers after ± are the reported error.
KCNA2/KCNA1: KCNA2/KCNA1 (Homo sapiens, UniProt P16389+Q09470)
Chain of UniProt P16389 (whole entry, looked up): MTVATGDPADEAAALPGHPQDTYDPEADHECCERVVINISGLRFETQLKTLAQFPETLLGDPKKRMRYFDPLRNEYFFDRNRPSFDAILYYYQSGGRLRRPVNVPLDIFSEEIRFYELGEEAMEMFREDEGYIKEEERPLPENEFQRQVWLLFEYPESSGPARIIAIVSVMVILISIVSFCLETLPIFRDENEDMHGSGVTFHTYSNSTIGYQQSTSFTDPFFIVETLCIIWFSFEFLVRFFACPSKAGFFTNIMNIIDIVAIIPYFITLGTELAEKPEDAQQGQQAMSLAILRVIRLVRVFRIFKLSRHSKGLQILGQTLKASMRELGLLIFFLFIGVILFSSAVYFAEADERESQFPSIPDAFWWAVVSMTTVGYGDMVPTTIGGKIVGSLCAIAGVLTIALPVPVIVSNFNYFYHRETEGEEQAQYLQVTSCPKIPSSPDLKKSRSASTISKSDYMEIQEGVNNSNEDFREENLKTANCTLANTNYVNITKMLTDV
Chain of UniProt Q09470 (whole entry, looked up): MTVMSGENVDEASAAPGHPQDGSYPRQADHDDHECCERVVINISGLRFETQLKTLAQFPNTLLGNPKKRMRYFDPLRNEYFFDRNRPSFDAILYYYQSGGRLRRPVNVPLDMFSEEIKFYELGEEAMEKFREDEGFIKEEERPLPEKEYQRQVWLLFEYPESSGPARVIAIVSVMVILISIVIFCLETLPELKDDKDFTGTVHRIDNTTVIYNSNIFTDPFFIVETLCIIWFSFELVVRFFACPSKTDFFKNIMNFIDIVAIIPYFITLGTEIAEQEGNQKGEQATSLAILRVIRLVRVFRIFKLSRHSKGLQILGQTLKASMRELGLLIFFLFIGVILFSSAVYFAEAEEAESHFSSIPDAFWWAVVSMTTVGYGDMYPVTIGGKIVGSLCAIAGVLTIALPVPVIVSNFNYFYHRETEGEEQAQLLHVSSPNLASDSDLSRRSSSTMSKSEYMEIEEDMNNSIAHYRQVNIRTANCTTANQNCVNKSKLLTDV
GRPR: Gastrin-releasing peptide receptor (GRPR, Homo sapiens, UniProt P30550)
Chain of UniProt P30550 (whole entry, looked up): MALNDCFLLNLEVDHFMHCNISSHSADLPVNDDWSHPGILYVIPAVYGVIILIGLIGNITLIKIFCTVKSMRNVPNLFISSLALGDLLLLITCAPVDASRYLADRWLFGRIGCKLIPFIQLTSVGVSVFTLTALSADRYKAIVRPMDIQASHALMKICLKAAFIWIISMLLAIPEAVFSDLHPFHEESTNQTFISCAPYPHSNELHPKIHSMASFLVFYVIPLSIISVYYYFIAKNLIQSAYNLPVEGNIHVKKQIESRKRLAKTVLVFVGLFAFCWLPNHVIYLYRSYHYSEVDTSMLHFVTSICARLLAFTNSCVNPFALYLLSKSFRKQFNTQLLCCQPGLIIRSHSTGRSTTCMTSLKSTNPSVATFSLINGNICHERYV
Chain of UniProt P19096 (whole entry, looked up): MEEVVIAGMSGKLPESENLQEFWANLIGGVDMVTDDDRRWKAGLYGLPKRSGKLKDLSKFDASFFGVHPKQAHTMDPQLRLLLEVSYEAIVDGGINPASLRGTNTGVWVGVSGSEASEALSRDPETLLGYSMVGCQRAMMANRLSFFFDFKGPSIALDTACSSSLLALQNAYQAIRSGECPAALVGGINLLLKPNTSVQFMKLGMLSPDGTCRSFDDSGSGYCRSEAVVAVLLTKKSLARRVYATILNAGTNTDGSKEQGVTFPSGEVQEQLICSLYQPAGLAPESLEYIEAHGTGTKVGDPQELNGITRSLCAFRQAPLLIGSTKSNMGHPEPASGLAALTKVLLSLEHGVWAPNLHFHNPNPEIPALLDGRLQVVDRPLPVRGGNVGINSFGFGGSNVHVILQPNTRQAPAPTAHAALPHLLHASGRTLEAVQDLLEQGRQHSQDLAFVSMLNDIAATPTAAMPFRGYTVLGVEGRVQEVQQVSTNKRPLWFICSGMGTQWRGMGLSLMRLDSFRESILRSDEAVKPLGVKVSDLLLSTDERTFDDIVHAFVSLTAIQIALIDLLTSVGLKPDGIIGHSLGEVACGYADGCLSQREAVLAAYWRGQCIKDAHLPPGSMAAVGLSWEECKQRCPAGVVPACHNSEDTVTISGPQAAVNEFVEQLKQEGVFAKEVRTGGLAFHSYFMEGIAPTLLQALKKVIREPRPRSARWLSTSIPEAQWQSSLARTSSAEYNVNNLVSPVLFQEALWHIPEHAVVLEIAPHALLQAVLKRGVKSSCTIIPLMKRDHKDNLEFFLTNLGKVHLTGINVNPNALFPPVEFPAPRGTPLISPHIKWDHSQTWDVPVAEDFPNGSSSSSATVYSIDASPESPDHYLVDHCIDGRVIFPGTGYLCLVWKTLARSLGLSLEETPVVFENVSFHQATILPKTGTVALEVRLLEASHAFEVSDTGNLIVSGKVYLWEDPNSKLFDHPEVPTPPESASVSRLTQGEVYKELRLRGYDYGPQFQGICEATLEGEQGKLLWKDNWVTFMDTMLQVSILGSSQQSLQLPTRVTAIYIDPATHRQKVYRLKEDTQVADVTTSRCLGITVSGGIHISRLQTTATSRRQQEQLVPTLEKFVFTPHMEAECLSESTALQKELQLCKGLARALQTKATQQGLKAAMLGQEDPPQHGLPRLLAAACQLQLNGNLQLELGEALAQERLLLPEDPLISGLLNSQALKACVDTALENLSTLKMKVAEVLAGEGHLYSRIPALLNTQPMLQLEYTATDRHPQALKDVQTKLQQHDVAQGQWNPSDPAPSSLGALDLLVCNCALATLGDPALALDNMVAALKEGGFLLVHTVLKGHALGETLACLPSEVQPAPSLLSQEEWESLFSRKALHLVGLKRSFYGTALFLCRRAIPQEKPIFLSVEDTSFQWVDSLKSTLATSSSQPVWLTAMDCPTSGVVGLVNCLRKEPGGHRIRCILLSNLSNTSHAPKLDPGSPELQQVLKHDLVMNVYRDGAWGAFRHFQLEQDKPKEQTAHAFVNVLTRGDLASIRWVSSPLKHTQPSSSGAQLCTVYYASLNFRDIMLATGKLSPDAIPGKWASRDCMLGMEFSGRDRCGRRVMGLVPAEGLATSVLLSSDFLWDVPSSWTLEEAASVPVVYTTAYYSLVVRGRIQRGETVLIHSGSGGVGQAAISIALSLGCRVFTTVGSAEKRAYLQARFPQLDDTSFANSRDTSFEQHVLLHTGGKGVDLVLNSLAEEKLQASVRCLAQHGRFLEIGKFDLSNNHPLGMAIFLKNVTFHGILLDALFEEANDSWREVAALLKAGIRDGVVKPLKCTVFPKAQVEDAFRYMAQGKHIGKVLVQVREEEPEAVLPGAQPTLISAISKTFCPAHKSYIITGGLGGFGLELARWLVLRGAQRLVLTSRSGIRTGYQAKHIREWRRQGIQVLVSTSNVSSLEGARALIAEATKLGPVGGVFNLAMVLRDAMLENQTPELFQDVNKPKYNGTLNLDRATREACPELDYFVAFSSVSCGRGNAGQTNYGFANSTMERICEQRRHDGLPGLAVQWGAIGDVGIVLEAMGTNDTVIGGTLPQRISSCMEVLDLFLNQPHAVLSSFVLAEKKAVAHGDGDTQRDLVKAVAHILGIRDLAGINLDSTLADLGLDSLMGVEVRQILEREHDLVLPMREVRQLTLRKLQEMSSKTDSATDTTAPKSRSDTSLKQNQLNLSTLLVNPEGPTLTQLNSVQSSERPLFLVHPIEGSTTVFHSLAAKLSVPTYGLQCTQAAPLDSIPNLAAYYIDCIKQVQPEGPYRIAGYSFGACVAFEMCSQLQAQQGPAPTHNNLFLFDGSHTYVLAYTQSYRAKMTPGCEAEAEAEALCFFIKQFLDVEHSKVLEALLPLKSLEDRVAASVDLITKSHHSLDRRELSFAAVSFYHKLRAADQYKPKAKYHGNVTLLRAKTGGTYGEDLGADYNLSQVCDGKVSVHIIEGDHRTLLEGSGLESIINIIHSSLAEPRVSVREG
Chain of UniProt P07363 (whole entry, looked up): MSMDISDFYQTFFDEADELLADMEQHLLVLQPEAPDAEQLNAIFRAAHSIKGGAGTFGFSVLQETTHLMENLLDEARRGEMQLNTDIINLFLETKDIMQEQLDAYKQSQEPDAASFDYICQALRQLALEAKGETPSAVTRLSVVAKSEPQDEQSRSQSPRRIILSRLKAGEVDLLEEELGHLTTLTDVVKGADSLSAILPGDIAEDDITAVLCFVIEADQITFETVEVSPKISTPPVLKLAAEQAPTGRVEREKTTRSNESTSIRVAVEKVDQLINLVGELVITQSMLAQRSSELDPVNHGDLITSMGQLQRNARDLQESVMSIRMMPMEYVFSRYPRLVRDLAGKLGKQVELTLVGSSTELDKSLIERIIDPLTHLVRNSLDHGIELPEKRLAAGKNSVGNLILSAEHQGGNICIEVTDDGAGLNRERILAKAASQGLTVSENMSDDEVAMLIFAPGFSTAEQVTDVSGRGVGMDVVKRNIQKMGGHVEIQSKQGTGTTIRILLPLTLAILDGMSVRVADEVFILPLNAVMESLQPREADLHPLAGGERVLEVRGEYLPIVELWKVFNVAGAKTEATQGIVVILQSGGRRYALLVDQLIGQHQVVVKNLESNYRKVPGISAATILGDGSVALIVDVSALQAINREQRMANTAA
Chain of UniProt Q99685 (whole entry, looked up): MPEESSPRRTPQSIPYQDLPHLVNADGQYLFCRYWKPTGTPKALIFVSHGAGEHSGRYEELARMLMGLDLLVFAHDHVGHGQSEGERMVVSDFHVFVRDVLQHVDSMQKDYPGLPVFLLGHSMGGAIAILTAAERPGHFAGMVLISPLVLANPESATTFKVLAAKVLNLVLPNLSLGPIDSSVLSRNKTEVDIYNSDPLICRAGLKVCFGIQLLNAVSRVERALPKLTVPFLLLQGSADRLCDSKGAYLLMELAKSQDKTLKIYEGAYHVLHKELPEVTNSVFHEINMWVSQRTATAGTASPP
Chain of UniProt P00441 (whole entry, looked up): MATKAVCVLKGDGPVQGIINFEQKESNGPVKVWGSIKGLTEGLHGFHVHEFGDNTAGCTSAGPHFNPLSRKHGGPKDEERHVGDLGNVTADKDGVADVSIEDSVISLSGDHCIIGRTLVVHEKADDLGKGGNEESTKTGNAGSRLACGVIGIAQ

O=C(O)c1ccc2nc(-c3ccc(OCCOc4ccc(-c5nc6ccc(C(=O)O)cc6[nH]5)cc4)cc3)[nH]c2c1  IC50 (Dihydrofolate reductase type 2 (Escherichia coli, UniProt P00383); enzyme activity, inhibitor; pH 7): 160000 ± 50000 nM
C=CC(=O)N1CCc2ccc(-n3c(=O)ccc4cnc5ccc(-c6cnn(C)c6)cc5c43)cc21  IC50 (Macrophage colony-stimulating factor 1 receptor (CSF1R, Homo sapiens, UniProt P07333); enzyme activity, inhibitor): 1720 nM
COc1ccc(C(=O)/C=C(\O)C(F)(F)C(F)(F)F)c(O)c1  IC50 (Formate-nitrite transporter (FNT, Plasmodium malariae, UniProt A0A1C3KYI2)): 150 ± 10 nM
CC1=C(/C=C/C(C)=C/C=C/C(C)=C/C=O)C(C)(C)CCC1  IC50 (CNGA1/CNGB1 (Bos taurus, UniProt Q00194+Q28181); cGMP-activated current, inhibitor, inside-out patch clamp; Xenopus oocytes; +100 mV, added: saturating cGMP 2 mM): 185 nM
CNC(=O)C1CCN(c2ccccc2NC(=O)c2ccc(-c3c(C)ccc4[nH]ncc34)c(C)c2)CC1  IC50 (Ephrin type-A receptor 5 (EPHA5, Homo sapiens, UniProt P54756); target engagement in cells, BRET): 13 nM
O=C(/C=C/c1ccc(O)c2oc(-c3ccc(O)c(O)c3)cc12)O[C@H](Cc1ccc(O)c(O)c1)C(=O)O  IC50 (G-protein coupled receptor 35 (GPR35, Homo sapiens, UniProt Q9HC97); DMR desensitization; HT-29; no detergent, added: zaprinast): 2030 nM
O=c1c(/C=N/NC(=S)N/N=C/c2ccccn2)coc2ccccc12  IC50 (Superoxide dismutase [Cu-Zn] (SOD1, Homo sapiens, UniProt P00441); enzyme activity, inhibitor; HeLa; 24 h): 1460 nM
CC(C)C[C@H](NC(=O)OCc1ccccc1)C(=O)N[C@H](C=O)C[C@H]1CCNC1=O  IC50 (Genome polyprotein, 3C protease (rhinovirus B14, UniProt P03303); 3C protease activity, inhibitor, FRET): 260 ± 30 nM
CCCCCCCC(=O)OCCN1CCN(c2cc(Nc3ncc(C(=O)Nc4c(C)cccc4Cl)s3)nc(C)n2)CC1  IC50 (Tyrosine-protein kinase CSK (CSK, Homo sapiens, UniProt P41240); enzyme activity, inhibitor): 600 nM
CC(=O)N(c1ccccc1)c1nc(COC(=O)[C@H]2CC(=O)N(c3cccc4ccccc34)C2)cs1  IC50 (KCNA2/KCNA1; potassium current, inhibitor, automated patch clamp; CHO-K1, concatemer expressing): 790 nM
CC(C)C[C@@H](N)C(=O)N[C@H](CC(=O)O)C(=O)N[C@@H](C(=O)N[C@H](Cc1ccccc1)C(=O)N[C@H](CC(C)C)C(=O)N[C@H](Cc1ccc(O)cc1)C(=O)N[C@H](CO)C(=O)N[C@H](CCC(=O)O)C(=O)O)C(C)C  IC50 (Programmed cell death 1 ligand 1, with PD-1 (Cd274, Mus musculus, UniProt Q9EP73); PD-1/PD-L1 binding, inhibitor, flow cytometry; CHO-K1 expressing mouse PD-1; added: mouse PD-L1-Fc): 55640 ± 140 nM
COc1cccc(CSC[C@@H](NC(=O)C(=O)O)C(=O)O)c1  IC50 (Lysine-specific demethylase 4E (KDM4E, Homo sapiens, UniProt B2RXH2); enzyme activity, inhibitor): 204000 nM
Cc1nc(N)ccc1-c1cc(Cl)cc(C(F)(F)F)c1  IC50 (E3 ubiquitin-protein ligase CHIP (STUB1, Homo sapiens, UniProt Q9UNE7); proteasome ubiquitylation, inhibitor, immunoblot): 85400 nM
O=C(OC(C(F)(F)F)C(F)(F)F)N1CCC(CCn2ccc3cccnc32)CC1  IC50 (Fatty-acid amide hydrolase 1 (Faah, Rattus norvegicus, UniProt P97612); enzyme activity, inhibitor): 3900 nM
O=C(CSc1nnc(N2CCOCC2)n1-c1ccccc1)NCc1cccc(NC(=O)C2CC2)c1  IC50 (KCNA2/KCNA1; potassium current, inhibitor, automated patch clamp; CHO-K1, concatemer expressing): 710 nM
O=C(NCCN1CCC(Cc2ccccc2)CC1)c1ccc2cc(Br)ccc2c1  IC50 (Sodium-dependent dopamine transporter (SLC6A3, Homo sapiens, UniProt Q01959); transporter uptake, inhibitor, radiometric): 410 to 1730 nM
Cc1ccc(CNC(=O)[C@H](CCc2ccccc2)NC(=O)[C@@H](N)CCc2ccccc2)cc1  IC50 (Proteasome component C5/PSMB5 (Homo sapiens, UniProt P20618+P28074); β5 activity, inhibitor; added: Suc-LLVY-AMC, PA28α-activated): 489 nM
CCCC[C@H](NC(=O)[C@H](Cc1ccccc1)NC(=O)[C@H](Cc1c[nH]cn1)NC(=O)CCNC(=O)[C@@H](NC(=O)[C@H](C)NC(=O)[C@H](Cc1c[nH]c2ccccc12)NC(=O)[C@H](CCC(N)=O)NC(=O)[C@H](N)Cc1ccccc1)C(C)C)C(N)=O  IC50 (GRPR; ligand displacement in cells, radioligand): 0.048 nM
O=C(O)C(CO)NCc1cc(Cl)c(OCc2cccc(-c3ccccc3)c2Br)cc1OCc1cccnc1 (stereo not drawn)  IC50 (CD28/CD86 (Homo sapiens, UniProt P10747+P42081); PD-1/PD-L1 interaction, inhibitor, ELISA): > 10000 nM
COc1ccc([C@@H]2CC(=O)c3c(O)cc(O[C@@H]4O[C@H](CO[C@@H]5O[C@@H](C)[C@H](O)[C@@H](O)[C@H]5O)[C@@H](O)[C@H](O)[C@H]4O)cc3O2)cc1  IC50 (Solute carrier organic anion transporter family member 1B3 (SLCO1B3, Homo sapiens, UniProt Q9NPD5); 8-FcA uptake, inhibitor, flow cytometry; HEK293 expressing SLCO1B3; 10 min, added: 8-FcA 2.5 µM): > 100000 nM
O=C(OC(C(F)(F)F)C(F)(F)F)N1CCC(CCn2nc3ccccc3n2)CC1  IC50 (Monoglyceride lipase (MGLL, Homo sapiens, UniProt Q99685); enzyme activity, inhibitor): 180 nM
N#CN1CC[C@H](C(=O)Nc2nc3c(s2)CN(C(=O)CN=[N+]=[N-])CC3)C1  IC50 (Ubiquitin carboxyl-terminal hydrolase isozyme L1 (UCHL1, Homo sapiens, UniProt P09936); enzyme activity, inhibitor, fluorescence; with preincubation): 320 nM
O=C(NCCCN1CCC(Cc2ccccc2)CC1)c1ccc2ccccc2c1  IC50 (Sodium-dependent noradrenaline transporter (SLC6A2, Homo sapiens, UniProt P23975); transporter uptake, inhibitor, radiometric): 150 to 760 nM
CC(C)=CCN=C(N)NCCC[C@@H](NC(=O)CCCc1ccc(O)cc1)C(=O)N[C@@H](Cc1ccccc1)C(O)CC(=O)N[C@@H](Cc1ccc(O)cc1)C(=O)O (stereo in doubt)  IC50 (Disintegrin and metalloproteinase domain-containing protein 10 (ADAM10, Homo sapiens, UniProt O14672); enzyme activity, inhibitor): > 100000 nM
CC[C@H](C)[C@H](NC(=O)[C@H](CCC(=O)O)NC(=O)[C@@H](NC(=O)[C@H](CCC(N)=O)NC(=O)[C@@H](N)CCCCN)[C@@H](C)CC)C(=O)N[C@@H](CCCCN)C(=O)N[C@@H](CCCCN)C(=O)N[C@@H](Cc1ccccc1)C(=O)N[C@@H](CCCCN)C(=O)O  IC50 (Gap junction alpha-1 protein (GJA1, Homo sapiens, UniProt P17302); hemichannel charge transfer, inhibitor, whole-cell voltage clamp; HeLa-Cx43; intracellular, at +70 mV): 6500 nM
CN(C)c1ccc2c3c(cccc13)C(=O)N(CCS)C2=O  IC50 (Metallo-beta-lactamase VIM-2 (VIM-2, Escherichia coli, UniProt Q5U7L7); enzyme activity, inhibitor; pH 7): 110 nM
Cn1c(=O)n(CCCO)c(=O)c2c1nc(Oc1cccc(OC(F)(F)F)c1)n2Cc1ccc(C2(C(F)(F)F)N=N2)cc1  IC50 (Short transient receptor potential channel 5 (TRPC5, Homo sapiens, UniProt Q9UL62); calcium signal, inhibitor, fluorescence): 18 nM
Nc1nc2ccc(Oc3ccc4nc(N)sc4c3)cc2s1  IC50 (Chemotaxis protein CheA (Escherichia coli, UniProt P07363); kinase activity, ATP-competitive; added: CheW): > 100000 nM
N#C/C(C(=O)c1ccc(Cl)cc1Cl)=C1\NC(=O)c2ccccc2N1  IC50 (Cytoplasmic dynein 1 heavy chain 1 (DYNC1H1, Homo sapiens, UniProt Q14204); ATPase activity, inhibitor): 52000 nM
O=C(NC(=S)Nc1nc(-c2ccccc2)cc(-c2ccc(Cl)cc2)n1)c1ccc(Cl)cc1  IC50 (alpha-amylase; inhibitor): 1510 ± 39 nM
CC(C)[C@H](NC(=O)[C@H](C)NC(=O)[C@H](Cc1c[nH]c2ccccc12)NC(=O)[C@H](Cc1c[nH]cn1)NC(=O)[C@H](N)Cc1ccc(O)cc1)C(=O)N[C@H](C)C(=O)N[C@@H](Cc1c[nH]cn1)C(=O)N1CCC[C@@H]1CN[C@@H](Cc1ccccc1)C(N)=O  IC50 (GRPR; inositol phosphate generation, antagonist; HuTu80; added: GRP): 158 ± 14 nM
COCc1nc(C(F)(F)F)[nH]c1-c1cc(C(=O)N2CC(c3ccc(C#N)cc3)C2)c(C)cc1C  IC50 (Fatty acid synthase (Fasn, Mus musculus, UniProt P19096); enzyme activity in cells, inhibitor): 12 nM
Cn1nnnc1Sc1c2c(c(C#N)c3nc4ccccc4n13)CCCC2  IC50 (ERO1-like protein alpha (Homo sapiens, UniProt Q96HE7); enzyme activity, inhibitor, fluorescence): 5200 nM
CN(C)S(=O)(=O)c1ccc(S(=O)(=O)N2CCC(n3c(=O)[nH]c4ccccc43)CC2)cc1  IC50 (mfd, C-terminal domain (Escherichia coli, UniProt P30958); ATPase activity; added: ATP 0 to 0.3 mM): 29000 ± 100 nM
CC(C)C[C@@H](CN[C@@H](Cc1ccc(Cl)cc1)C(N)=O)NC(=O)[C@H](Cc1c[nH]cn1)NC(=O)CNC(=O)[C@@H](NC(=O)[C@H](C)NC(=O)[C@H](Cc1c[nH]c2ccccc12)NC(=O)[C@H](CCC(N)=O)NC(=O)[C@H](N)Cc1ccccc1)C(C)C  IC50 (GRPR; inositol phosphate generation, antagonist; HuTu80; added: GRP): 20 ± 1 nM
N[C@@H](C(=O)N1CCCC1)C1CCN(c2nccc3c(-c4ncc(Cl)cc4Cl)cccc23)CC1  IC50 (Protein-arginine deiminase type-4 (PADI4, Homo sapiens, UniProt Q9UM07); enzyme activity, fluorescence quenching; added: Ca2+ 0.4 mM): 26000 nM
CCCCCCCCCCCCCC(=S)NCCCC[C@H](NC(=O)CNC(=O)CN)C(=O)NCC(=O)O  IC50 (NAD-dependent protein deacetylase sirtuin-1 (SIRT1, Homo sapiens, UniProt Q96EB6)): 58900 nM
CN(C(=O)c1ccn2ncc(-c3ccc(C(N)=O)cc3)c2c1)c1ccc(C#N)cn1  IC50 (rat benzodiazepine receptor; inhibitor, radioligand binding): > 30000 nM
CN[C@H](CC(C)C)C(=O)N[C@H]1C(=O)N[C@@H](CC(N)=O)C(=O)N[C@H]2C(=O)N[C@H]3C(=O)N[C@H](C(=O)N[C@H](C(=O)O)c4cc(O)cc(O)c4-c4cc3ccc4O)[C@H](O)c3ccc(c(Cl)c3)Oc3cc2cc(c3O[C@@H]2O[C@H](CO)[C@@H](O)[C@H](O)[C@H]2O[C@H]2C[C@](C)(NCc3ccc(C(=O)OCCCCCCN(Cc4ccccn4)Cc4ccccn4)cc3)[C@H](O)[C@H](C)O2)Oc2ccc(cc2Cl)[C@H]1O  IC50 (class B1 metallo-beta-lactamases; enzyme activity, inhibitor; mean over enzymes and): 200 to 5000 nM
C[C@H](OP(=O)(O)O)[C@H]1NC(=O)[C@H](Cc2ccc3ccccc3c2)NC(=O)[C@H](CCCNC(=N)N)NC(=O)[C@@H](CCCNC(=N)N)NC(=O)[C@H](CCCNC(=N)N)NC(=O)[C@H](Cc2ccc3ccccc3c2)NC(=O)[C@@H]2CCCCN2C1=O  IC50 (Peptidyl-prolyl cis-trans isomerase NIMA-interacting 1 (PIN1, Homo sapiens, UniProt Q13526); fluorescence anisotropy competition; added: FITC-labelled probe): 1550 ± 330 nM
O=C(NCc1cccc(CN2CCCC2=O)c1)NCC(c1ccccc1)c1ccccc1  IC50 (KCNA2/KCNA1; potassium current, inhibitor, automated patch clamp; CHO-K1, concatemer expressing): 2980 nM
Cc1cc2c(NC(=O)N[C@@H]3CC(C)(C)Oc4cc(C(F)(F)F)ccc43)c(C)ccc2cn1  IC50 (Transient receptor potential cation channel subfamily M member 8 (TRPM8, Homo sapiens, UniProt Q7Z2W7); cell-based): > 100000 nM
